Measurements gathered from unrelated publications.
Every numbered part comes from another study and shows a few of its results, in no order. Substitutions count along the parent as printed.

Series 1 — technique: RNA Bind-n-Seq; molecule type: RNA; medium: in vitro; tested at: 365 nM; reference: no-protein control; reading: higher = stronger binding
Target: RNA binding protein fox-1 homolog 2, RRM domain, GST-SBP tag (RBFOX2, Homo sapiens, UniProt O43251-10, residues 100-194)
Notes: natural RNA segment, single round, ends assumed
All sequences stand within: GGGAGUUCUACAGUCCGACGAUC … UGGAAUUCUCGGGUGCCAA
Construct (chain): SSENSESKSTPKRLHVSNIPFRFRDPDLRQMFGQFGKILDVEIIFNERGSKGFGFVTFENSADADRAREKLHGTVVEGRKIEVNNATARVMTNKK
Sequence	RBNS enrichment (R)
CUUCAGGAAAUCACUGUAUUAGGAAUGUGCAAUGACUUAUAUAAAUAAAGCCAUUUUUUGAAACUGCUGGGGCCUGUGUUCUAAUUAUUCCCCCCUUUUUUAUUUCUGUU	1.27
GAAGCAGGCUCUGCUUCUCUGUUGUUCCUGGUGGCUGGGCCUUAGCAGGGGUCUUUGCUCUUGAAGCCCAGGAUUGGGCAUGACCUGGUAGGAGCCUCUGUUCUUACCUA	0.967
CCCACCUUUCUUGCACACUGUGAUUAUGUGCUAAGAAAAGGGUGGAGUUGGGAGGACAAUUUCACUUGAACAGGUUUCUGUUCUUCUGAGGUCAGGGUGGGGAGGAUGUC	0.695
AGAAGCCAGAGUCACCGAAGGAUUCUCCUUUUCCGACGCGCUUGGAGUGAACUACACAUAGACCACACUGCGGGGCGAGAGCAUUACAUAACAUGGCCACUAGGAGGGUU	0.493
UAAGCCAAAAAUAAAUACGUUAACAGAAAAAUGAUUUAGGAUAUAGCUUGAAUGCUUAAAUAUGUGCACCUUUACAAACCUCUCAGUGUAUUCUUGGAGUUCUUGAAAUG	1.2
AACGAGUACUGAGAGGAGAGAAUGUACGUUUGCUUUACCCACCGCCACCAAGAAAGCAGUCCGAUGAGAUUUUUUUUUGGAGGGGGGAGGGUCUACACAGCAAGAGAACA	0.317
GCAGCUCACAUCCCACCCAGCUUCACAAGUGAGGAACCCAGGUGCAUCGGGAGACCCUCGGGGGCUUCUGUGGCCUCUGUGCCCGAUGACCUGCGUGGCUUCAGACAAGG	0.213
GGUUUUCAAGGCUCCCAGACGUAGAGUAGGAAACGUGCUCUUCUAAAUGAGGAGGGAGAAGAUAAAGGAAACUUCUAGCCCCUGUCCUUAGUGCUUUGAGGAUUUUAUUU	0.249
GAACUGGACGUCACCAAACAAGGUUGCAUUUUACUUUUGCAUCCAGUUUUUAUAGUUUUCCACAACCAAGCCACCCUUCACAGAUAAAAUAUGAUGCUGGCAUGGCAAUC	0.551
CCUGAGGGUCAGUGCUCAGCCCAGCCCUCCACUGUUGGUGGCAACCGUGGGACACCUCAUUCCCUACCCCAAACGGGCCUUUUAAUUGUCCUGGUCACUUGUACUGGUUA	0.443
GAUAUGGGUUGCUGUCUUCUGGCCUCCAGCUGCAUGGAGGCCGGCCCAGGGUCUAGGGUGUGCACUGGGCAAGGGCAGGGCGGCAGGUGUCAGGCCGGCUUGGACAAUGA	0.644
AAAAAACCAAAGUGAAACACUAAAAAUUCCCUAUAGAUAUAUUCCAGGAAAUAUUUUAAUUGGGCUGAUUUUAAUUAGGCUGUAUCAUUGAUGAUUACUGGAAUCGAUUU	0.609

Series 2 — target: CCND3, cyclin fold, Cln2 fusion (human); technique: yeast growth competition, sequencing; medium: yeast; notes: weak parent motif; reference: not given; reading: higher = stronger binding
Starting sequence: PKN2 docking peptide (human); VSAVRKLDFSDTM; partner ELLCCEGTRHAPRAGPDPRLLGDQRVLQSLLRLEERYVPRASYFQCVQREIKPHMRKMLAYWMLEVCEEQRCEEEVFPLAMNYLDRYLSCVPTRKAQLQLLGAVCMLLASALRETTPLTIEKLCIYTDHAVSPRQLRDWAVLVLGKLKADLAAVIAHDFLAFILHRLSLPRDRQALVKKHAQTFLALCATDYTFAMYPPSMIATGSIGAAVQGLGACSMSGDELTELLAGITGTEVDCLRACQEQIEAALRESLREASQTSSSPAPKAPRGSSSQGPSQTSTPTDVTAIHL
Change	normalised enrichment score
L7M	0.0694
A3P	0.152
D11N	0.513
A3W	-0.00566
V4E	0.305
A3N	-0.1
K6P	-0.478
V4Q	0.707
A3L	-0.0122
D8P	0.163
D8A	0.36
S2R	0.798
T12W	0.543
L7I	0.548
A3Q	0.17
D8I	0.433
R5W	0.0242

Series 3 — technique: aptamer microarray, sandwich; molecule type: DNA with 2'F-ANA; medium: in vitro; tested at: 200 nM; with: Cy3 exosite-II aptamer, 400 nM; reading: higher = stronger binding; sequence: GGTTGGTGTGGTTGG
Target: Prothrombin, mature alpha-thrombin (F2, Homo sapiens, UniProt P00734)
Notes: whole 15-mer aptamer, many near background
Modification	mean fluorescence intensity [a.u.]
2'F-ANA at 3 4 5 6 7 15	90.2
2'F-ANA at 1 2 5 7 8 10 12 13	55.6
2'F-ANA at 2 4 11 12 13 14 15	113
2'F-ANA at 2 7 10 11	155
2'F-ANA at 3 4 5 6 8 11 12 14	53.1
2'F-ANA at 2 3 4 5 6 7 9 10 14 15	56.2
2'F-ANA at 1 2 3 6 7 9 11 12 13 15	205
2'F-ANA at 2 3 5 6 7 11 13 14	46.8
2'F-ANA at 1 2 5 8 10 11	48
2'F-ANA at 2 5 7 9 11 13	52.1
2'F-ANA at 2 3 5 9 10 11 12 14	56.1
2'F-ANA at 1 3 4 5 10 14 15	44.8
2'F-ANA at 1 6 7 9 10 14 15	46.1
2'F-ANA at 2 3 5 6 7 8 10 12	65.2
2'F-ANA at 1 8 9 12 13	328
2'F-ANA at 4 6 13 14	83.5
2'F-ANA at 1 7 8 9 10 11 12 13	100
2'F-ANA at 2 3 7 8 9 10 11 12 15	429
2'F-ANA at 2 4 5 10 11 13 14 15	52.5
2'F-ANA at 2 5 6 8 10 11 14	45.6
2'F-ANA at 1 2 3 4 7 13 15	119
2'F-ANA at 1 2 4 7 9 15	128
2'F-ANA at 1 3 4 5 8 10 11 13 14	50
2'F-ANA at 1 3 5 7 14	43.2
2'F-ANA at 2 4 5 7 9 10 12 13 15	51.7

Series 4 — technique: DHFR PCA, deep sequencing; medium: yeast; with: (+)-ABA 58 µM; reference: wild-type fitted maximum; reading: higher = stronger binding
Target: ABI1, truncated, D143A, DHFR fusion (Arabidopsis thaliana)
Notes: methotrexate growth selection, single substitutions
Starting sequence: PYL1, truncated, DHFR fusion (Arabidopsis thaliana); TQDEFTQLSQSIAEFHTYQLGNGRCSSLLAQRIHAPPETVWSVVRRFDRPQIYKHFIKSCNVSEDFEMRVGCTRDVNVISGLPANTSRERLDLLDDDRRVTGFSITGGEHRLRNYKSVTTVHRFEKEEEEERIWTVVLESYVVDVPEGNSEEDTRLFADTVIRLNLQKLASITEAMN; partner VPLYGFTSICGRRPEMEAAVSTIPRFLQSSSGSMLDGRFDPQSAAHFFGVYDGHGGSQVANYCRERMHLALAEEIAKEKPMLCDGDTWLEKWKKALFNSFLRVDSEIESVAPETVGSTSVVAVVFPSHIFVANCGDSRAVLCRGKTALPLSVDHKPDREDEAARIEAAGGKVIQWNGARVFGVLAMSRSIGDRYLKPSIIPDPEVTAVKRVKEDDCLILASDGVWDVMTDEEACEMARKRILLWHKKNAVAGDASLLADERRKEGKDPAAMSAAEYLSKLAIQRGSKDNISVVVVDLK
Change	relative binding score [%]
R98C	60.7
E125N	96.6
Q31D	-13.2
E38R	48.3
T1N	87.4
F5H	84.7
G81L	-10.2
P36I	46.3
E131K	93.1
R69T	85.8
Q7P	77.3
S11I	77.5
E89R	-0.313
E89P	-5.32
V43L	85.4
L8C	73.4

Series 5 — technique: protein-binding microarray; molecule type: double-stranded DNA, one strand shown; medium: in vitro; tested at: 250 nM; notes: 60-bp whole probe; with: salmon DNA 0.4 mg/ml; reference: random background probes; reading: higher = stronger binding; all sequences stand within: GCCTAGCAC … GTCTTGATTCGCTTGACGCTGCTG
Target: Interferon regulatory factor 7, full length, phosphomimetic (IRF7, Homo sapiens, UniProt Q92985, residues 1-503, S101K/S471D/S472D/S475D/S476D/S477D/S483D/S484D/S487D)
Sequence of UniProt Q92985 (whole entry, unmodified, looked up): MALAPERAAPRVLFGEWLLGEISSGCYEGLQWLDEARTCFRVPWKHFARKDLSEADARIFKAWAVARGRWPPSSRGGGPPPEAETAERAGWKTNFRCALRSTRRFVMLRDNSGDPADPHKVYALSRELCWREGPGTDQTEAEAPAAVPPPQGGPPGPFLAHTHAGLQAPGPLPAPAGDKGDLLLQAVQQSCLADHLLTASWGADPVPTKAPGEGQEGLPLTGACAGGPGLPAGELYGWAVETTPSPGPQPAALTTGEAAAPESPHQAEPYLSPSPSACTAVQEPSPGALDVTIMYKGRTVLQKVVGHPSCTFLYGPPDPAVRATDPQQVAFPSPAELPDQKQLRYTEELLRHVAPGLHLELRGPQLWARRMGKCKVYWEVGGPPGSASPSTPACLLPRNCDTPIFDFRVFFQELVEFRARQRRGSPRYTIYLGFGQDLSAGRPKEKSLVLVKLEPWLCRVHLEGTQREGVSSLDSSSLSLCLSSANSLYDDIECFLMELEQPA
Sequence	log fluorescence [z-score]
TCTTTTATGGTATTTTTTTGGTGCTAG	1.16
GACGGTATCGGGTTACGGGACGTGCTA	2.62
TCATCTTTCCACTTGTCACTGTGCTAG	1.91
GACGATATGAGTCTCGAGACGTGCTAG	0.259
CCCTATTTAAGGCATCTGCAGGTGCTA	0.943
GACGGTTTCGACTTTCGAGACGTGCTA	11.1
TCAGTGTTCTTTTCTGTTACTGTGCTA	0.272
TTAGGTATCCTTCTCCATTAGTGCTAG	0.586
TTAGATATCAGTATGGATTAGTGCTAG	0.021
TCACATTTTGGTTTTCCACTGTGCTAG	1.11
TTAGATGTCAGACTGGATTAGTGCTAG	-0.264
GACGATTTCGGGTTTCGGGACGTGCTA	3.68
TTAGGTTTCCGGTTTCGGTTAGTGCTA	10.8
TTCATTATTGCTTCCTCTTTGTGCTAG	0.869
TTAGAACTGGGATTTCGATTAGTGCTA	0.468
TTAGATTTCAGTATCGATGAGTGCTAG	0.505
GACGATTGCAGTTTCGAGACGTGCTAG	3.1
